Assay results collected from several papers.
Each numbered part is a random draw from the data of one study; scales do not carry over between parts.

Block 1 — method: protein-binding microarray; molecule type: double-stranded DNA, one strand shown; medium: in vitro; tested at: 940 nM top; setting: 60-bp whole probe; with: salmon DNA 0.4 mg/ml; baseline: random background probes; direction: higher = stronger binding; all sequences stand within: GCCTAGCAC … GTCTTGATTCGCTTGACGCTGCTG
Target: Interferon regulatory factor 5, full length, phosphomimetic (IRF5, Homo sapiens, UniProt Q13568-2, residues 1-514, S451D/S453D/S456D/S462D)
Oligonucleotide	fitted relative affinity [z-score]
TTAGGCTTCGGGTATCGGTTAGTGCTA	2.59
GACGCTCTCCTTCTCCTGACGTGCTAG	0.349
GACGATTTCGGGTTTCCAGACGTGCTA	0.804
GCCCCACCCGCTCTGGCCCCGTGCTAG	-0.32
TTAGAACTGCTACTGCTTTAGTGCTAG	-0.294
TTAGTTATCAGTTTCGATTAGTGCTAG	8.07
GACGGTATCGGGTTTGGGGACGTGCTA	4.34
TCAGATTGGTTGAACATACTGTGCTAG	-0.0454
GACGGTTTCGGGAGTGGGGACGTGCTA	6.83
TCACTTTTGGCTTTCCTACTGTGCTAG	1.54
TTAGTACTGAGACTGGATTAGTGCTAG	-0.122
TTAGATTCCAGTTTCGCTTAGTGCTAG	5.45
GCATTTTTCTAACCCATTGAGTGCTAG	0.985
ATAGGTTTCGGTTCCGGTTAGTGCTAG	14.3
TTAGAACTGGTGTATCGATTAGTGCTA	0.854
ATGTGTTTAAGAATGTTTTTGTGCTAG	-0.123
GACGAACTGAGTATCGAAACGTGCTAG	2.69
TCACGTATATTCCCTAGAACTGTGCTA	0.814
TTAGGCCTGCTTCTCCTTTAGTGCTAG	-0.0685
GACGATTTCCGACTGGAGACGTGCTAG	0.249

Block 2 — method: RNA Bind-n-Seq; molecule type: RNA; medium: in vitro; tested at: 200 nM; setting: whole 134-nt RNA, ends assumed; with: 150 mM LiCl; baseline: input library; direction: higher = stronger binding; library: 7-deaza-guanosine replaces G
Target: Ras GTPase-activating protein-binding protein 1, full length (G3BP1, Homo sapiens, UniProt Q13283)
UniProt Q13283, sequence (whole entry, looked up): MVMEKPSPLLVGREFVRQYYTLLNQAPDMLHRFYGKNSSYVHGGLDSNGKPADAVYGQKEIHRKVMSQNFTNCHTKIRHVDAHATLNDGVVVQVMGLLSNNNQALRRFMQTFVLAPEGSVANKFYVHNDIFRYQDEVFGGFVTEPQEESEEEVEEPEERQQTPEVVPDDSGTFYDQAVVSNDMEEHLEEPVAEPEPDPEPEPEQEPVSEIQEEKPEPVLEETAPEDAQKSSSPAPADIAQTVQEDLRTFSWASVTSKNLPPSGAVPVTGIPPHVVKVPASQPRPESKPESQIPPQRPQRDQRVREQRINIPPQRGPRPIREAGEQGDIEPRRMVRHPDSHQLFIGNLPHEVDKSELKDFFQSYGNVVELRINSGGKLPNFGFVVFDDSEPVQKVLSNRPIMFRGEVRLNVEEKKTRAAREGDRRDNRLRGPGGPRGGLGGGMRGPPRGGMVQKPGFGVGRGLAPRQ
Oligonucleotide	log2 enrichment
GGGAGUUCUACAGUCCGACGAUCGUCCUGUGCUACACAUCGUAUGUACCGAAUCGGGCCCCCCGGCCCCCCGGGCCCCCCGGAAAGUAUUAUGUUACGCCGUUCGGAUCUGCAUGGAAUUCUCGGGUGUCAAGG	-0.676
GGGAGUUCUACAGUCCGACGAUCCUGUGCUACACAUCGUAUGUACCGAAUCGGGGAAAAAGGGGUUUUUUUGGGGAAAAAGGGGAAAGUAUUAUGUUACGCCGUUCGGAUCUGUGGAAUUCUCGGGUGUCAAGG	-0.694
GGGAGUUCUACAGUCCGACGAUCACCAUGCAGGUGGGCAUCUUUGGGAAGUGGGGCAAGGGGGGGAUAGGGAGGGGGGUAACACUUUGGGACCAGGUGGUCCCAGGUCGUUUCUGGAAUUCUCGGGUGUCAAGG	0.498
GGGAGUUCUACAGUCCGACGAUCUUGUGGUAUUUUAUUUACUUAUUUUUUUAAAUCUUCCAUUACAGCCAUGCCUUUCUUGGACAUCCAGAAAAGGUUCGGCCUUAACAUAGAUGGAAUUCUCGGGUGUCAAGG	1.38
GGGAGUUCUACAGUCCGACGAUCUUUUAAUUUGUUUGUCUCUCAUGAAACUAUGGUCUUUUAAAAAUUAAAGGUUUUUUUUUUCCCCUUAGACGAAACUGCAAAGGAAAUCCGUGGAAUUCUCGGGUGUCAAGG	0.486
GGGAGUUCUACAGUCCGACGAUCUUCCUCAAGUCCUGUGCUACACAUCGUAUGUACCGAAUCGGAGGGAGGAGGAAAGUAUUAUGUUACGCCGUUCGGAUCUGCACUUCCAGCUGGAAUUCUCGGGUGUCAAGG	-1.24
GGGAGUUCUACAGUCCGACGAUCCCUGUGCUACACAUCGUAUGUACCGAAUCGGUUUUUUUGGUUUUUUUGGGGUUUUUUUGGGAAAGUAUUAUGUUACGCCGUUCGGAUCUGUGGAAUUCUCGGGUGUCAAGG	0.119
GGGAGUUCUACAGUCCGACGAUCCCUCAAGUCCUGUGCUACACAUCGUAUGUACCGAAUCGGAAAAAGGUGGAGGAAAGUAUUAUGUUACGCCGUUCGGAUCUGCACUUCCAGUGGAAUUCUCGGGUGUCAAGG	0.0875
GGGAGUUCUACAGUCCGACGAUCAAAUGGUAGUGUGCGGAGUUUUUUUUUCUUCCUUCUUUUAAAAAUGGUUGUUUAAGACUUUAACAAUGGGAACCCCUUGUGAGCAUGCUCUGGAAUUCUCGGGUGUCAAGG	-2.2
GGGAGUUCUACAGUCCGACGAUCCAAGUCCUGUGCUACACAUCGUAUGUACCGAAUCGGGUUUGGGAAAGGGAAAGGGAAAGUAUUAUGUUACGCCGUUCGGAUCUGCACUUCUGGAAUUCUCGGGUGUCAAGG	0.0717
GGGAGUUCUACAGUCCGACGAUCUCCUCAAGUCCUGUGCUACACAUCGUAUGUACCGAAUCGGCGGGCGGGCGGAAAGUAUUAUGUUACGCCGUUCGGAUCUGCACUUCCAGCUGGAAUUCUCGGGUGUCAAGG	0.924

Block 3 — method: RNA Bind-n-Seq; molecule type: RNA; medium: in vitro; tested at: 365 nM; baseline: no-protein control; direction: higher = stronger binding
Target: RNA binding protein fox-1 homolog 2, RRM domain, GST-SBP tag (RBFOX2, Homo sapiens, UniProt O43251-10, residues 100-194)
Setting: natural RNA segment, single round, ends assumed
Target sequence (chain): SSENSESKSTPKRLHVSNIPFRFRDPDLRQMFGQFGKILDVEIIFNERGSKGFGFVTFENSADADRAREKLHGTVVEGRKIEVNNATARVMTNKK
Oligonucleotide	RBNS enrichment (R)
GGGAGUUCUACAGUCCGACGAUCAACAAAAACAAGAAACAAAUGUGCCCACCCCACUUUCCGCUUAACUGAAAAGCUUAAAAUAAAUUUCUGAAUUAUGUAUCCUGAAGCUUUGAAAUUUCUUUAUUAAUCGAUGGAAUUCUCGGGUGCCAA	1.08
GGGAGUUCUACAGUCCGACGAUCGAAAUUAAAAGGUAUAUUCUUAAGAUAUAUUAUAUUUUGAUGCUAAUUCUGUUCUGGGGAGCAUCUUGUAUUGUCACUGUUUUGUACUAAAUCUUCAAAUAUUGUCUACUUGGAAUUCUCGGGUGCCAA	0.482
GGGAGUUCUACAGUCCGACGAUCUGCAGCCGGCACACCCAGUGGUGGAGGGCCGGCGCUGCCACUCACGGUGGGUGGCCGUGGGCCACCUUCCCUGCAAUGGGUGCACACGCGGCUCCCAUCCAGCCCUCUCAUGGAAUUCUCGGGUGCCAA	0.333
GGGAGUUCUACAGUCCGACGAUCAAAAGAAGGGGGGAAAUGGUCAGUUUAAGCCAAAAGAAACUUUCUAAACAAUGUAUAGGUACACAGCAAAAUUAAACAAAUCCAACAAUUUCUGAAGCUUAGUGUAAUUGUGGAAUUCUCGGGUGCCAA	0.492
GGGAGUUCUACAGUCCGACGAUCGAGUUGGGAGGACAAUUUCACUUGAACAGGUUUCUGUUCUUCUGAGGUCAGGGUGGGGAGGAUGUCCAGGUGACUUUUAUGGACACAUUGCAAGACAGUAAGCCGCGGAUUGGAAUUCUCGGGUGCCAA	0.747
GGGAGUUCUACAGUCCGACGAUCGUGUGCCCAGCCACUAAAGCACUCUGGACUAAUCGCUAAAGAGAAGCAACGUGGGGGGUGGGGUUGCGAGGGAUGUGUUCACAUGUACCCAUCAUUUGAUCAUAGCACUGUGGAAUUCUCGGGUGCCAA	0.332
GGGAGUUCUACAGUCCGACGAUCGAGCAGUGUCAGAGAUUCUUGCUUUAACUUUGAUUUGCUUUCUCCCAUUCUUGGCCCUGGUCACUAGGGUCCUGGCUAUUCUAGAACUCAGUAAAAUGUAUGUCUAAUGCUGGAAUUCUCGGGUGCCAA	0.204
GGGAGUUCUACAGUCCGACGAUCUUGGGAAGCGUAGAGGCAGGGCCAUGUGCUCAGAACGGUGACAAUAAAGGACUGCCUUUUACUUGUUCCUCUAGUGUAGCAUCCCCUCCCUCUGUCCUUUUUAACCUUCGUGGAAUUCUCGGGUGCCAA	0.91
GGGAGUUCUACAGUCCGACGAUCUUUUCCUCCCUCUUUUCCCCUUGCCCCCUCUGCAGCCGGAGGAGGAGAUGUUGAGGGGAGGAGGCCAGCCAGUGUGACCGGCGCUAGGAAAUGACCCGAGAACCCCGUUGUGGAAUUCUCGGGUGCCAA	0.41
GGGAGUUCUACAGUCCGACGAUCAACUGGCGUGAAAGGUGAGCAGGCGUCUGCGGAGCGGAUUCCUGUGGUGGACCGUGGAGUGCAGAGGUUUAGGGAGAUCCUGCCAUUGCUCACACAAGAAGACAGAGCCGUGGAAUUCUCGGGUGCCAA	1.4
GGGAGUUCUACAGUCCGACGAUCUUAUAGGAAAAAGAAGAUUCAGAGAAACAAAGGAAUGUAACCUUAUUGAUUACAUUUUUGGUGAUCACCGAGAAUUUUUUGUACUAUAUUUUAAAAAAUGUAUUCUACUGUGGAAUUCUCGGGUGCCAA	0.495
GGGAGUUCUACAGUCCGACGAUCUGUUUAUUCCCUUUUCACUGGUCCCGUUCGUGAAUGAGUGAAUAUAAGAAGCCUGUCAGUAUUGCCAUGAGACUGUUUCAUAUGGUUACUUUUCUGUAUUCCCAAGGAAUUGGAAUUCUCGGGUGCCAA	0.849

Block 4 — method: protein binding microarray; molecule type: double-stranded DNA, one strand shown; medium: in vitro; tested at: not given; baseline: not given; direction: higher = stronger binding
Target: Histone acetyltransferase KAT6A, winged helix 2, GST fusion (KAT6A, Homo sapiens, UniProt Q92794, residues 85-181)
Setting: 8-mer, flanks averaged, mean of 2 arrays, mostly near background
Target sequence (chain): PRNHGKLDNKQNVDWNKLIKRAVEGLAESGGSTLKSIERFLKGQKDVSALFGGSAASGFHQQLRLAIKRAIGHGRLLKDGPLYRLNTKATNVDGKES
Oligonucleotide	E-score
TAACGCTA	-0.147
ATAACACG	-0.104
CCCAAGGA	-0.0892
TAAAATGA	0.154
GAGCATAC	0.057
AGACATTA	-0.0661
ACGTTGTG	0.0441
ACTTACAG	-0.149
CGATAAGA	-0.0386
CCTCCAGA	0.111
ATCCCCGA	0.0349
ACGGGTGG	0.0458
AATTGGAC	0.00329
GATAATCA	0.0641
ACGGGTTC	-0.102
ACGCCTTG	-0.0285
CAGCTACG	0.0197
TGGCGCCA	0.0909
CCGCCCCA	0.302
AATAGTAC	-0.0813
CTACACAC	-0.159
CCCCGAGA	-0.0363
ACTATAAC	-0.196
CATCGTAG	-0.0916
ATGATAAG	-0.0794

For quick reference, copied from above (block 2):
Oligonucleotide	log2 enrichment
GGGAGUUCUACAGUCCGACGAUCCUGUGCUACACAUCGUAUGUACCGAAUCGGGGAAAAAGGGGUUUUUUUGGGGAAAAAGGGGAAAGUAUUAUGUUACGCCGUUCGGAUCUGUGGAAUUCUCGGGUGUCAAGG	-0.694
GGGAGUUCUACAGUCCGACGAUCACCAUGCAGGUGGGCAUCUUUGGGAAGUGGGGCAAGGGGGGGAUAGGGAGGGGGGUAACACUUUGGGACCAGGUGGUCCCAGGUCGUUUCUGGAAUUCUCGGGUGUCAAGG	0.498
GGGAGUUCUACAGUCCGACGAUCUUGUGGUAUUUUAUUUACUUAUUUUUUUAAAUCUUCCAUUACAGCCAUGCCUUUCUUGGACAUCCAGAAAAGGUUCGGCCUUAACAUAGAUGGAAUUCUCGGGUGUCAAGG	1.38
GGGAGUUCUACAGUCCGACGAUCUUUUAAUUUGUUUGUCUCUCAUGAAACUAUGGUCUUUUAAAAAUUAAAGGUUUUUUUUUUCCCCUUAGACGAAACUGCAAAGGAAAUCCGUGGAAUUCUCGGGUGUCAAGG	0.486
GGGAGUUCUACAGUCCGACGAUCUUCCUCAAGUCCUGUGCUACACAUCGUAUGUACCGAAUCGGAGGGAGGAGGAAAGUAUUAUGUUACGCCGUUCGGAUCUGCACUUCCAGCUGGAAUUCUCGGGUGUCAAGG	-1.24
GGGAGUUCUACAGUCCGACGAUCCCUGUGCUACACAUCGUAUGUACCGAAUCGGUUUUUUUGGUUUUUUUGGGGUUUUUUUGGGAAAGUAUUAUGUUACGCCGUUCGGAUCUGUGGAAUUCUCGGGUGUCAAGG	0.119
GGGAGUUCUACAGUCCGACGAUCCCUCAAGUCCUGUGCUACACAUCGUAUGUACCGAAUCGGAAAAAGGUGGAGGAAAGUAUUAUGUUACGCCGUUCGGAUCUGCACUUCCAGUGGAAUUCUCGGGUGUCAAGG	0.0875
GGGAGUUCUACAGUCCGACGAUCAAAUGGUAGUGUGCGGAGUUUUUUUUUCUUCCUUCUUUUAAAAAUGGUUGUUUAAGACUUUAACAAUGGGAACCCCUUGUGAGCAUGCUCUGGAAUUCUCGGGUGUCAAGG	-2.2
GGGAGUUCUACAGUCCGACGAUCCAAGUCCUGUGCUACACAUCGUAUGUACCGAAUCGGGUUUGGGAAAGGGAAAGGGAAAGUAUUAUGUUACGCCGUUCGGAUCUGCACUUCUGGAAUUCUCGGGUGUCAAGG	0.0717
